Experimental data gathered from unrelated publications.
± gives the spread as reported.
Cell line: HepG2

O=C(CNc1cccc(S(=O)(=O)N2CCOCC2)c1)Nc1ccc(F)c(Cl)c1 — EC50 (cell growth or viability): > 25 µM
[NH2][Pt]1([NH2])([Cl])([O]C(=O)C(Cl)Cl)[O]C(=O)C2(CC(=O)C2)C(=O)[O]1 — JC-1 red/green fluorescence ratio (mitochondrial membrane potential; 30 µM, 48 h): 0.98
COc1cc(C2c3cc4c(cc3C=C(C=O)C2C(=O)OCC=Cc2ccccc2)OCO4)cc(OC)c1OC (centres unmarked) — selectivity index (reference: CC50 HepG2 over amastigote EC50): > 10
CCOC(=O)c1c(C(C)C)oc2nc(N3CCOCC3)ccc12 — EC50 (cell growth or viability; 48 h): > 50 µM
N[C@@H](Cc1c[nH]cn1)C(=O)NCCC(=O)NCCC(=O)N[C@@H](Cc1c[nH]cn1)C(=O)O — viability (LDH; 10 µg/mL, 6 h, 1% FBS): 61.6%
O=C(/C=C/c1ccc(O)c(O)c1)OCCCC[P+](c1ccccc1)(c1ccccc1)c1ccccc1 — therapeutic index (SRB; 24 h; reference: IC50 L02 over IC50 HepG2): 12.9
Cc1ccc2nc(-c3ccc(Cl)cc3)c(CN3CCN(c4ccc(F)cc4)CC3)n2c1 — EC50 (cell growth or viability; 48 h): > 50 µM
Cc1cc2nc(-c3cc4ccccc4nc3Cl)[nH]c2cc1C — protein level (western blot, item: cyclin B1, CDK1, CDC25C; concentration not given; reference: untreated): decreased
Cc1c(C(=O)NNC(=S)Nc2ccc(Cl)cc2)nnn1Cc1nc2ccccc2[nH]1 — cells in pre-G1 phase (PI flow cytometry; concentration not given): 44.5%
C[C@H](CC(=O)C[C@@H](C)[C@H]1C[C@H](O)[C@@]2(C)C3=C(C(=O)C[C@]12C)[C@@]1(C)CCC(=O)C(C)(C)[C@@H]1C[C@@H]3O)C(=O)O — mRNA level (item: PPARA; concentration not given, with: high glucose): decreased
Cc1ccc(NCCNc2ccc(F)c(Cl)c2)cc1S(=O)(=O)N1CCOCC1 — EC50 (cell growth or viability): > 25 µM
CCOC(=O)c1c(C)oc2nc(N3CCN(c4ccccc4)CC3)ccc12 — EC50 (cell growth or viability; 48 h): > 50 µM
CC(=O)O[C@@H]1CC[C@@]2(C)C(CC[C@]3(C)C2C(=O)C=C2C4[C@@H](C)[C@H](C)CC[C@]4(C)CC[C@]23C)[C@@]1(C)C(=O)N/N=C1/C(=O)Nc2ccccc21 (some centres unmarked) — inhibition (IL-1β production, ELISA, item: IL-1β; 10 µM, with: acetaminophen 10 mM; reference: acetaminophen-treated cells): ~47%
Cc1ccc(NCC(=O)Nc2cccc(Cl)c2)cc1S(=O)(=O)N1CCOCC1 — EC50 (cell growth or viability): > 25 µM
COc1cc(/C=C/C(=O)OCCCC[P+](c2ccccc2)(c2ccccc2)c2ccccc2)ccc1O — therapeutic index (SRB; 24 h; reference: IC50 L02 over IC50 HepG2): 8.61
Cc1ccc(NC(C)(C)C(=O)Nc2ccc(F)c(Cl)c2)cc1S(=O)(=O)N1CC2CCC(C1)O2 — EC50 (cell growth or viability): > 25 µM
CN(C(=NN=C(c1ccccc1)c1ccccn1)[S][Ga]([Cl])[Cl])C1CCCCC1 — G1 phase cells (PI flow cytometry; 5 µM, 24 h; reference: vehicle): increased
CCOC(=O)c1c(C(C)C)oc2nc(N3CCCC3)ccc12 — EC50 (cell growth or viability; 48 h): > 50 µM
CSC(=S)N/N=C(\C)c1ccc(S(=O)(=O)N2CCC(C)CC2)cc1 — apoptotic cells total (annexin V/PI staining; IC50, 72 h): 11.8%
CCOc1cccc2c1[O][Pt-2]1([Cl])[N+](=C2)c2ccccc2[NH+]1c1ccccc1 (centres unmarked) — cells in G0/G1 phase (flow cytometry PI; concentration not given, 24 h): 21 to 27%
O=C(/C=C(O)/C=C/c1cccs1)/C=C/c1cccs1 — intracellular ROS (DCFH-DA, SRB-normalized; 10 µM; reference: untreated cells): 110 ± 10.4%
NCCC(=O)N[C@@H](Cc1c[nH]cn1)C(=O)N[C@@H](Cc1c[nH]cn1)C(=O)NCCC(=O)O — viability (MTT; 10 µg/mL, 6 h): 13.8%
Cc1ccc(Nc2ncc3c(n2)N(Cc2ccccc2)C(=O)N(c2cc(NC(=O)c4cccc(C(F)(F)F)c4)ccc2C)C3)cn1 — GI50 (cell growth or viability, ATP luminescence; 72 h): 1.27 µM
CC(=NN=c1sc(C(=O)c2ccccc2)nn1-c1ccccc1)c1ccc(S(=O)(=O)N2CCC(C)CC2)cc1 — necrotic cells (annexin V/PI staining; IC50, 72 h): 2.52%
CC(C)(C)c1cc2c(O)c(c1)Cc1cc(C(C)(C)C)cc(c1OCC(=O)Nc1nccs1)Cc1cc(C(C)(C)C)cc(c1O)Cc1cc(C(C)(C)C)cc(c1OCC(=O)Nc1nccs1)COC2 — inhibition (cell growth or viability, MTT; 15 µM, 72 h): 16%
Cc1ccc(NCC(=O)N2CCOCC2)cc1S(=O)(=O)N1CCOCC1 — EC50 (cell growth or viability): > 25 µM
C=C1C(=O)C23CCC4C(C)(C)CCCC4(C)C2C(O)CC1C3 (single isomer, unassigned) — protein level (western blot, item: GPX4; 2.5 µM, 24 h): no effect
CC(=O)O[C@H]1CC[C@]2(C)[C@H]3C(=O)C=C4[C@@H]5C[C@@](C)(C(=O)OCc6ccccc6)CC[C@]5(C)CC[C@@]4(C)[C@]3(C)CC[C@H]2C1(C)C — MDC fluorescence intensity (autophagy, flow cytometry; 8 µM, 48 h, unit not given; reference: untreated): 2480
CSC(=NN=C(C)c1ccc(S(=O)(=O)N2CCC(C)CC2)cc1)N(C)C — cells in %S (flow cytometry; 3.31 µM, 72 h): 33.4%
Cc1ccc(NCC(=O)Nc2ccc(F)c(Cl)c2)cc1CN1CCOCC1 — EC50 (cell growth or viability): > 25 µM
CCC[C@H]1CC[C@H](c2ccc(NC(=S)NC[C@@H]3[C@@H](O)[C@@H](O)[C@H]4[C@H](O)CCCN43)cc2)CC1 — cell invasion (Transwell; concentration not given): decreased
CC(=O)O[C@@H]1CC[C@@]2(C)C(CC[C@]3(C)C2C(=O)C=C2C4[C@@H](C)[C@H](C)CC[C@]4(C)CC[C@]23C)[C@@]1(C)C(=O)OCC(=O)Oc1cc(C)ccc1C(C)C (some centres unmarked) — MDA level (1 µM, acetaminophen-induced injury, with: 10 mM acetaminophen): 8.2 nmol/mg
O=C(CNc1ccc(F)c(S(=O)(=O)N2CCOCC2)c1)Nc1ccc(F)c(Cl)c1 — EC50 (cell growth or viability): > 25 µM
CCN1C(=O)N(c2cc(NC(=O)c3cccc(C(F)(F)F)c3)ccc2C)Cc2cnc(Nc3ccc(C)nc3)nc21 — GI50 (cell growth or viability, ATP luminescence; 72 h): 1.31 µM
Cc1ccc2nc(-c3ccccc3)c(CN3CCN(c4cccc(Cl)c4Cl)CC3)n2c1 — EC50 (cell growth or viability; 48 h): > 50 µM
O=C1/C(=C/c2ccc3c(c2)OCCO3)SC(=S)N1[C@@H]1O[C@H](CO)[C@@H](O)[C@H](O)[C@H]1O — total apoptotic cells (annexin V/PI; IC50, 48 h): 44.6%
Cc1ccc(Nc2ncc3c(n2)N(c2ccccc2)C(=O)N(c2cc(NC(=O)c4cccc(C(F)(F)F)c4)ccc2C)C3)cn1 — GI50 (cell growth or viability, ATP luminescence; 72 h): 15.9 µM
O=C(O)c1cc2cc(O)ccc2n1Cc1ccc(Cl)c(C(F)(F)F)c1 — lowest effective concentration (oxygen consumption rate, Seahorse; 6 h): ≥ 500 µM
[Cl][Pd-2]1([Cl])[N+](=Cc2ccc[nH]2)Cc2cccc[n+]21 — viability reduction (MTT; 100 µg/mL, 24 h): > 80%
N[C@@H](Cc1c[nH]cn1)C(=O)NCCC(=O)N1CCC[C@H]1C(=O)NCCC(=O)N[C@@H](Cc1c[nH]cn1)C(=O)O — viability (LDH; 10 µg/mL, 6 h, 1% FBS): 61%
C=C1CC(OC(=O)C(C)(O)CCl)C2C(=C)C(=O)OC2C2C1CC(O)C2(O)CCl (centres unmarked) — cells in G1 phase (PI flow cytometry; IC50, 48 h): 60.1 ± 1.7%

For quick reference, copied from above:
Cc1ccc(NCCNc2ccc(F)c(Cl)c2)cc1S(=O)(=O)N1CCOCC1 — EC50 (cell growth or viability): > 25 µM
Cc1ccc(NC(C)(C)C(=O)Nc2ccc(F)c(Cl)c2)cc1S(=O)(=O)N1CC2CCC(C1)O2 — EC50 (cell growth or viability): > 25 µM
O=C(O)c1cc2cc(O)ccc2n1Cc1ccc(Cl)c(C(F)(F)F)c1 — lowest effective concentration (oxygen consumption rate, Seahorse; 6 h): ≥ 500 µM
C[C@H](CC(=O)C[C@@H](C)[C@H]1C[C@H](O)[C@@]2(C)C3=C(C(=O)C[C@]12C)[C@@]1(C)CCC(=O)C(C)(C)[C@@H]1C[C@@H]3O)C(=O)O — mRNA level (item: PPARA; concentration not given, with: high glucose): decreased
